Results from different studies.
Parts stem from different laboratories: compare values within a part only.
Sequence of UniProt Q16644 (whole entry, looked up): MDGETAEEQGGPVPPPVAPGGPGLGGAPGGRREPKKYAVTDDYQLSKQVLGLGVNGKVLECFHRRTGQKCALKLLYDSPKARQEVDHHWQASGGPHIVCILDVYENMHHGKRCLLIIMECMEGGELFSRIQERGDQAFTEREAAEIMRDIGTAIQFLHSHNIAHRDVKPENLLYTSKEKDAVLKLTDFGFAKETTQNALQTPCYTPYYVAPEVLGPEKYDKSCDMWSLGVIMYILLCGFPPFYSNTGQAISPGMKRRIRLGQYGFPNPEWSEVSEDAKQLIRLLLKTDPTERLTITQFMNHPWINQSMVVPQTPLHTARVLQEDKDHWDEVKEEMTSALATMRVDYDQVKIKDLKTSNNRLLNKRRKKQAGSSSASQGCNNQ
Sequence of UniProt Q6P3R8 (whole entry, looked up): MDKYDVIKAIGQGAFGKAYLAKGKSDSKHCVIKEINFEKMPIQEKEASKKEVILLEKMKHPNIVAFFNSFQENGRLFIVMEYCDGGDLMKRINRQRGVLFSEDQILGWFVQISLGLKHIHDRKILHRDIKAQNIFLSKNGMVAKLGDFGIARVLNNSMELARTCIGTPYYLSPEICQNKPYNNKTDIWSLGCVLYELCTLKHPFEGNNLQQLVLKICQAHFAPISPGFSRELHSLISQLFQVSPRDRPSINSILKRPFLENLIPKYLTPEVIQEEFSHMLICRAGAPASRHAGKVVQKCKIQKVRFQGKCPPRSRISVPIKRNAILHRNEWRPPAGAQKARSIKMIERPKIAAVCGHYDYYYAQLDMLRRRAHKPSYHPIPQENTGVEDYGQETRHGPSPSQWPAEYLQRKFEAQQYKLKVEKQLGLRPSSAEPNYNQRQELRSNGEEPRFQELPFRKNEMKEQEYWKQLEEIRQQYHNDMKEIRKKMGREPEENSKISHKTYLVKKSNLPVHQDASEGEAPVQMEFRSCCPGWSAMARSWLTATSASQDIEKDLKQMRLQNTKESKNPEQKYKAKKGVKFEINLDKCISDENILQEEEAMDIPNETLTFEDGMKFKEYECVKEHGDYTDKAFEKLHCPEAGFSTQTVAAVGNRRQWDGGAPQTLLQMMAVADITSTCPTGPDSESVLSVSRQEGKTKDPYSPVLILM
Sequence of UniProt O15264 (whole entry, looked up): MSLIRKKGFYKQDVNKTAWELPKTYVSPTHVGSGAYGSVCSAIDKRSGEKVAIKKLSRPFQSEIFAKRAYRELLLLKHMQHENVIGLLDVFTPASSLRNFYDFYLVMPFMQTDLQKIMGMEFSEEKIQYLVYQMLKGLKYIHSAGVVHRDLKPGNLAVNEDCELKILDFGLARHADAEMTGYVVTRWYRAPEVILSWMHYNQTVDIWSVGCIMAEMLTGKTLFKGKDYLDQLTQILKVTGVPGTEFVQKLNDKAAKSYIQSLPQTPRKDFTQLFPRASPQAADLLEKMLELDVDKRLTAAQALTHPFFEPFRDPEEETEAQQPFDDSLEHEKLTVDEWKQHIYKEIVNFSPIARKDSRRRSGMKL
Sequence of UniProt Q7L7X3 (whole entry, looked up): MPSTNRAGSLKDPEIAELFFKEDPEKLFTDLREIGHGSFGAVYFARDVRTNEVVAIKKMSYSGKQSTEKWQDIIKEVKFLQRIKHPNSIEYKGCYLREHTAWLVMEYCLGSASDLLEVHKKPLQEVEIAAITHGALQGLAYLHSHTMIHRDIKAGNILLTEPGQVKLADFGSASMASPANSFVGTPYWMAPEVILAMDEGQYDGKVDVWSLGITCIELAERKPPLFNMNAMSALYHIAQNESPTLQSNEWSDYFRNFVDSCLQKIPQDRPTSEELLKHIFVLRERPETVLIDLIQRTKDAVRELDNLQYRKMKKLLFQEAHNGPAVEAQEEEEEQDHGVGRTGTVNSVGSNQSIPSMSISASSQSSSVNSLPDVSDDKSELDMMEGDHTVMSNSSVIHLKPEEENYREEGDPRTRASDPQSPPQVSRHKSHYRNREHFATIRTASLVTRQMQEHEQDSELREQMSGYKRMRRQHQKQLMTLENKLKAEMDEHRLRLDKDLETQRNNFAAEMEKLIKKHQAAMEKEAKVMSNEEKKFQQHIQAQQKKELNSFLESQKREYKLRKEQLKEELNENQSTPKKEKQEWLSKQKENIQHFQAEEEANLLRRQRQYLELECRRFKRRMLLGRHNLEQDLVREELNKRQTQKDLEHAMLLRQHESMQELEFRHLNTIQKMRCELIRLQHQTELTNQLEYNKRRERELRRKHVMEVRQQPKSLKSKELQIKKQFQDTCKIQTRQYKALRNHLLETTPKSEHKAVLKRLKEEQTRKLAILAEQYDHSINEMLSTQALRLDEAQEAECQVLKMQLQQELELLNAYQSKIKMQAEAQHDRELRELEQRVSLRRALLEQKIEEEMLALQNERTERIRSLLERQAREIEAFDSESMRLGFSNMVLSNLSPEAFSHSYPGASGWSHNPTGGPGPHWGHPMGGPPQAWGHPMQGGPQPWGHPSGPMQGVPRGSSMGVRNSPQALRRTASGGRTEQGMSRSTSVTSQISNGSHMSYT
Sequence of UniProt Q9UQB9 (whole entry, looked up): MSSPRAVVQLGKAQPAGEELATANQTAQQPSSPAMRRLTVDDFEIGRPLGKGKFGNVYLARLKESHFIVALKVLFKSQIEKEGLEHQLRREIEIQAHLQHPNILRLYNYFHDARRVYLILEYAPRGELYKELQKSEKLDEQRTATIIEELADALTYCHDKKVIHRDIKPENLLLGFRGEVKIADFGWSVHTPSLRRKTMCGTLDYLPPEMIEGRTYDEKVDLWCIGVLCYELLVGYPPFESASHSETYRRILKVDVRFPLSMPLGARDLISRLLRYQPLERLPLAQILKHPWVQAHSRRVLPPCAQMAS

Sample 1 — read-out: thermal unfolding; method: differential scanning fluorimetry; concentration: 5.5 µM; direction: higher = more unfolded
SMILES: C[C@@H]1CN(c2ccc(-c3cc(C(=O)NCCOCCOCCOCCOCCOCCOCCNC(=O)/C=C/c4[nH]cc(C(=O)N[C@@H](CC(N)=O)c5ccc(F)c(Cl)c5)c4-c4ccc(Cl)cc4F)ccc3F)cc2NC(=O)c2ccc(F)cc2C(F)(F)F)C[C@H](C)N1C
DCAF1: DDB1- and CUL4-associated factor 1 (DCAF1, Homo sapiens, UniProt Q9Y4B6)
Sequence of UniProt Q9Y4B6 (whole entry, looked up): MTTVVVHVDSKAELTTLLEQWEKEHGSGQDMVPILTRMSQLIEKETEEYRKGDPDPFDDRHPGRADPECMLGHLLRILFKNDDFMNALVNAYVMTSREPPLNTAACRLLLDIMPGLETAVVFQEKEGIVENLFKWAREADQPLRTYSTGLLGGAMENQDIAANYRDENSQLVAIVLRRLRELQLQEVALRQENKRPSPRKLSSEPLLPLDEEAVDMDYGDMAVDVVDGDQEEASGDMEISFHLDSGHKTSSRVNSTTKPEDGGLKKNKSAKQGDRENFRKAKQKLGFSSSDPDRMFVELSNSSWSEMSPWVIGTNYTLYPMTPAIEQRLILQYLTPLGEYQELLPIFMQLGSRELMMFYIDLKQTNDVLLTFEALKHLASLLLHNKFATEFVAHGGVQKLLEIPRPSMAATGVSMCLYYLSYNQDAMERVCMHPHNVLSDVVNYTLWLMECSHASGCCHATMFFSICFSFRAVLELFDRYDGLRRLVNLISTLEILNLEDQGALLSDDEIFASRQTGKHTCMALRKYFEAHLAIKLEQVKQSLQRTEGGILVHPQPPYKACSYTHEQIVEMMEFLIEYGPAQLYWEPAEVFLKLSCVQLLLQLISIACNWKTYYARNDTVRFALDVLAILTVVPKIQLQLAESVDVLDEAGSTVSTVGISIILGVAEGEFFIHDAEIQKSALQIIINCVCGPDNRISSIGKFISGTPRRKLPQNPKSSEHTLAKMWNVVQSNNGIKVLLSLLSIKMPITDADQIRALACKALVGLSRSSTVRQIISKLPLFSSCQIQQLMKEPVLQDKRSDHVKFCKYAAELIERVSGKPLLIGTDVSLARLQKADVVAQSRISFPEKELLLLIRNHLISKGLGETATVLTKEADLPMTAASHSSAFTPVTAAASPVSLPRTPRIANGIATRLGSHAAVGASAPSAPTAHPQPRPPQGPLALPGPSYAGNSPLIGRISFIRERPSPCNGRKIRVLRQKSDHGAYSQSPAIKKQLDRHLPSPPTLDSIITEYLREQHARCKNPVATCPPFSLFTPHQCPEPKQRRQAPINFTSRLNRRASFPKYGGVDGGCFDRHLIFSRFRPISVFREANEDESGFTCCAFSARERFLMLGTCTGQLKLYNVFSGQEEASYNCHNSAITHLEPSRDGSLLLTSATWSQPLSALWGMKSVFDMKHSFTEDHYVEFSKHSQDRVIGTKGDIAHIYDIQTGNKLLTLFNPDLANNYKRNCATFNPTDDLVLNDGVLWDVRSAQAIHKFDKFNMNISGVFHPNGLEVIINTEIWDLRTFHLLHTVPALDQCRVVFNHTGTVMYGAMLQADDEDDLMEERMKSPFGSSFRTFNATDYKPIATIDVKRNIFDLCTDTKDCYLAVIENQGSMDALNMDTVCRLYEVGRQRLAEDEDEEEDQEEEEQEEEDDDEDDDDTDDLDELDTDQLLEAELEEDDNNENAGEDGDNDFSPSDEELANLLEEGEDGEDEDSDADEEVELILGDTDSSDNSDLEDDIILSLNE
| target | setting | SYPRO Orange fluorescence [a.u.] |
| --- | --- | --- |
| DCAF1 | 67.61 °C | 50700 |
| DCAF1 | 44.4 °C | 14300 |
| DCAF1 | 48.8 °C | 17100 |
| DCAF1 | 44 °C | 14100 |
| DCAF1 | 59.21 °C | 44000 |
| WD repeat-containing protein 5 (WDR5, Homo sapiens, UniProt P61964) | 26.6 °C | 13300 |
| DCAF1 | 28.8 °C | 8090 |

Sample 2 — read-out: kinase activity
Structure (SMILES): CNc1ncc2cc(-c3cc(OC)cc(OC)c3Cl)c(=O)n(CCc3ccc(NC(=O)C(C#N)=CC(C)(C)N4CCOCC4)cc3)c2n1
| target | setting | inhibition |
| --- | --- | --- |
| MAP kinase-activated protein kinase 3 (MAPKAPK3, Homo sapiens, UniProt Q16644) | 0.1 µM | -1% |
| Epidermal growth factor receptor (EGFR, Homo sapiens, UniProt P00533) | 0.1 µM | 2% |
| Serine/threonine-protein kinase TBK1 (TBK1, Homo sapiens, UniProt Q9UHD2) | 0.1 µM | 0% |
| Ribosomal protein S6 kinase alpha-5 (RPS6KA5, Homo sapiens, UniProt O75582) | 0.1 µM | 0% |
| Cyclin-dependent kinase 4, with cyclin D (CDK4, Homo sapiens, UniProt P11802) | 0.1 µM | -3% |
| Mitogen-activated protein kinase 13 (MAPK13, Homo sapiens, UniProt O15264) | 1 µM | 2% |
| Dual specificity protein kinase CLK2 (CLK2, Homo sapiens, UniProt P49760) | 1 µM | -2% |
| Tyrosine-protein kinase Srms (SRMS, Homo sapiens, UniProt Q9H3Y6) | 1 µM | -1% |
| ALK tyrosine kinase receptor (ALK, Homo sapiens, UniProt Q9UM73) | 0.1 µM | 1% |
| Cyclin-dependent kinase 5, with p25 (CDK5, Homo sapiens, UniProt Q00535) | 0.1 µM | -4% |
| cGMP-dependent protein kinase 1 (PRKG1, Homo sapiens, UniProt Q13976) | 1 µM | 3% |
| Serine/threonine-protein kinase N2 (PKN2, Homo sapiens, UniProt Q16513) | 1 µM | 0% |

Sample 3 — action: inhibitor; method: FLIPR membrane potential; cell line: CHO-BC cells; concentration: 30 µM
Target: Sodium-dependent neutral amino acid transporter B(0)AT1 (SLC6A19, Homo sapiens, UniProt Q695T7)
Sequence of UniProt Q695T7 (whole entry, looked up): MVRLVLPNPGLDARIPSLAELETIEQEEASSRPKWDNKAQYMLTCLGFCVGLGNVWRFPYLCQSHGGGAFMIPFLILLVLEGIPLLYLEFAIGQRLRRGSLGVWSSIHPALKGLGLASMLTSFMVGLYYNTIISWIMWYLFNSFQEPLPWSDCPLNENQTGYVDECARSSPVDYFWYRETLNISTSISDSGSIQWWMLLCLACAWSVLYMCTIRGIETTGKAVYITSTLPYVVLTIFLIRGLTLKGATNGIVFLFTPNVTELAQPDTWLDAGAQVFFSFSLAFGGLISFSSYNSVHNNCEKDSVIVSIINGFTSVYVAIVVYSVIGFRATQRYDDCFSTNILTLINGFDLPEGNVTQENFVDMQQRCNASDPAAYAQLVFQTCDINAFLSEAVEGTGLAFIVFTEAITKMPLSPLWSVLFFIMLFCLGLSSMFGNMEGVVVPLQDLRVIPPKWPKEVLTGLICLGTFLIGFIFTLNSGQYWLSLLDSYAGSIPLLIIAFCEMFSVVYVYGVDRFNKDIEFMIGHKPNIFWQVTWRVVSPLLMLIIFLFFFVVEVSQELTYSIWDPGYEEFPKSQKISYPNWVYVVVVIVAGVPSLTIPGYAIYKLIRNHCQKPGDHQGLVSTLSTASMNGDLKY
| SMILES | normalised transport activity |
| --- | --- |
| Cc1cc(OCC(=O)NC(C)C)cc(C)c1Br | 0.233 |
| Cc1cc(OCC(=O)NC(C)C)cc(C)c1I | 0.169 |
| Cc1cc(NCC(=O)NC(C)C)cc(C)c1Cl | 0.102 |
| CCNC(=O)COc1cc(C)c(Cl)c(C)c1 | 0.488 |

Sample 4 — read-out: binding; method: competition with immobilised ligand; concentration: 1 µM
Compound: COc1cc(-c2nc3ccc(C(=O)NCCCN4CCN(c5cccc(C)c5C)CC4)cc3n2C2CCC2)cc(OC)c1OC
| target | remaining binding [%] |
| --- | --- |
| Homeodomain-interacting protein kinase 2 (HIPK2, Homo sapiens, UniProt Q9H2X6) | 100 |
| Receptor tyrosine-protein kinase erbB-2 (ERBB2, Homo sapiens, UniProt P04626) | 98 |
| eIF-2-alpha kinase GCN2, C-terminal kinase domain (EIF2AK4, Homo sapiens, UniProt Q9P2K8, S808G) | 100 |
| Serine/threonine-protein kinase Nek5 (NEK5, Homo sapiens, UniProt Q6P3R8) | 100 |
| Serine/threonine-protein kinase TAO1 (TAOK1, Homo sapiens, UniProt Q7L7X3) | 92 |
| Epidermal growth factor receptor (EGFR, Homo sapiens, UniProt P00533, del747-752/P753S) | 76 |
| RAC-gamma serine/threonine-protein kinase (AKT3, Homo sapiens, UniProt Q9Y243) | 100 |
| Mast/stem cell growth factor receptor Kit (KIT, Homo sapiens, UniProt P10721, T670I/V559D) | 100 |
| Aurora kinase C (AURKC, Homo sapiens, UniProt Q9UQB9) | 100 |
| Activated CDC42 kinase 1 (TNK2, Homo sapiens, UniProt Q07912) | 79 |
| Calcium-dependent protein kinase 1 (CDPK1, Plasmodium falciparum, UniProt P62344) | 87 |
| Tyrosine-protein kinase SYK (SYK, Homo sapiens, UniProt P43405) | 78 |
| Cyclin-dependent kinase 11B (CDK11B, Homo sapiens, UniProt P21127) | 99 |
| Calcium/calmodulin-dependent protein kinase kinase 2 (CAMKK2, Homo sapiens, UniProt Q96RR4) | 87 |

A few entries again (sample 2):
| target | setting | inhibition |
| --- | --- | --- |
| MAP kinase-activated protein kinase 3 (MAPKAPK3, Homo sapiens, UniProt Q16644) | 0.1 µM | -1% |
| Epidermal growth factor receptor (EGFR, Homo sapiens, UniProt P00533) | 0.1 µM | 2% |
